{"data": "Published values pooled from the literature", "cell line": "CCRF-CEM", "note": "Protocols differ between the studies behind these lines."}
{"Compound": "CNS(=O)(=O)Nc1nccc(Cc2c(C)c3ccc(Oc4ncccc4F)cc3oc2=O)c1F", "assay": "cell viability, CellTiter-Glo", "conditions": "7 days", "measurement": "IC50", "result": "> 1000 nM"}
{"Compound": "CCCC(CCC)C(=O)OCc1cn(-c2cc3ccccc3oc2=O)nn1", "assay": "NCI60 single dose", "conditions": "10 µM", "measurement": "growth", "result": "92%"}
{"Compound": "Cc1ccc([N+](=O)[O-])cc1S(=O)(=O)N(C)/N=C/c1cnc2ccc(Br)cn12", "assay": "cell growth or viability", "measurement": "IC50", "result": "3720 nM"}
{"Compound": "O=C(Nc1nnc2c1c(-c1ccc(Cl)cc1)nc1sc(=Cc3ccco3)c(=O)n12)c1ccccc1 (mixture of isomers)", "assay": "NCI60 SRB", "conditions": "10 µM", "measurement": "growth percent", "result": "23.3%"}
{"Compound": "COc1cccc(N2C(=O)C3=Nc4ccccc4CN3C2=S)c1", "assay": "cell growth or viability, resazurin", "conditions": "72 h", "measurement": "IC50", "result": "28100 nM"}
{"Compound": "CCOc1cncc(-c2ccc(NC(=O)C3(c4ccnc(NS(=O)(=O)C5CC5)n4)CCOCC3)nc2)n1", "assay": "cell growth or viability, ATP luminescence", "conditions": "72 h", "measurement": "IC50", "result": "75 nM"}
{"Compound": "C[C@@H](c1ccc2ccccc2c1)N1C(=O)C2=Nc3ccccc3CN2C1=S", "assay": "cell growth or viability, resazurin", "conditions": "72 h", "measurement": "IC50", "result": "200 nM"}
{"Compound": "CN(C)CCN1CCN(c2ccc3nc(-c4ccc5nc(-c6ccc(C(F)(F)F)cc6)[nH]c5c4)[nH]c3c2)CC1", "assay": "cell growth, NCI-60 SRB", "conditions": "10 µM, 48 h", "measurement": "growth percent", "result": "38.6%"}
